Assay results collected from several papers.
Every numbered part comes from another study and shows a few of its results, in no order. Substitutions count along the parent as printed.

Series 1
Target: CCNB1, cyclin fold, Cln2 fusion (human)
Technique: yeast growth competition, sequencing
Matrix: yeast
Setting: weak parent motif
Relative to: not given
Direction: higher = stronger binding
Parent: CDC6 docking peptide (human); TLKGRRLVFDNQL
Substitution	normalised enrichment score
TLKQRRLVFDNQL [G4Q]	0.499
TLKGRRIVFDNQL [L7I]	1.06
TTKGRRLVFDNQL [L2T]	-0.66

Series 2
Target: RNA binding protein fox-1 homolog 2, RRM domain, GST-SBP tag (RBFOX2, Homo sapiens, UniProt O43251-10, residues 100-194)
Technique: RNA Bind-n-Seq
Form: RNA
Matrix: in vitro
Tested at: 365 nM
Setting: natural RNA segment, single round, ends assumed
Relative to: no-protein control
Direction: higher = stronger binding
Residues (chain): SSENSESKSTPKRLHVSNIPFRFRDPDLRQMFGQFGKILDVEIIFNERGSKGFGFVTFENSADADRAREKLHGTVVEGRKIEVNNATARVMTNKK
Oligonucleotide	RBNS enrichment (R)
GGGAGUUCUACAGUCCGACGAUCGCUCACCCUUCUUAACAUUCUGUAAUGGUUACAGAUGAGAAUGGAAAACACAUAUUUUAUGGAUGAGGCGUUUUGGUCUCCCCUGCAGUCGAUUUCUAGAAUCAAGUUUUUGGAAUUCUCGGGUGCCAA	0.303
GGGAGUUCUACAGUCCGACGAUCUUUGUUAAAAUGCUAUUUUUAAAACCAUAUGAAGGUAGGAUAAUUAAUUACAAGUCCACAUCAUGAGACAAACUGAAGUAACUUAGGCAAAACAGGUAAAACAGUCAUAGUGGAAUUCUCGGGUGCCAA	0.304
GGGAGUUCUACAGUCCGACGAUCCAGGCCUGAGUUCCUAAGGAAACCACCCUACCGGGGUGGAAGGGAGGGUCAGGGAAGAAACCCACUCUUGCUCUACGAGGAGCAAGUGCCUGCCCCCUCCCAGCAGCCAGUGGAAUUCUCGGGUGCCAA	0.392
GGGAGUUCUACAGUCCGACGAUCAGCUUCUUCACAGCCUGUUCAGCCUGGGCUCCUGGAGGACAGCCCUGGGGGAGGCAGUGAGGGGCAGCGCCAAGAUAGCCAGGUGGUUGGUUCCAGGACCACAGUGUCUUUGGAAUUCUCGGGUGCCAA	0.531
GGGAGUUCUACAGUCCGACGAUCUAUACCCCCAAAAUACCGUCUUCAGUAGCGACUGAAUCUGCCACUGUCAAAAUACGUUACUUGCAUUUAUUCCAAAUAAUCUCGUUUACUCUUAACUGUUUAUGCAAAUUUGGAAUUCUCGGGUGCCAA	0.783

Series 3
Target: Histone acetyltransferase KAT6A, winged helix 2, GST fusion (KAT6A, Homo sapiens, UniProt Q92794, residues 85-181)
Technique: protein binding microarray
Form: double-stranded DNA, one strand shown
Matrix: in vitro
Tested at: not given
Setting: 8-mer, flanks averaged, mean of 2 arrays, mostly near background
Relative to: not given
Direction: higher = stronger binding
Residues (chain): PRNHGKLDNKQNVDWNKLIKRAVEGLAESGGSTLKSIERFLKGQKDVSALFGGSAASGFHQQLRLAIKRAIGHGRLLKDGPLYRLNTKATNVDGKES
Oligonucleotide	E-score
CGCTGCTC	-0.0729
CAAGCCCG	0.000715
CTGCAGCC	0.134
CGGATGTC	0.154
GAACTTTA	-0.0135

Single results of other studies
Substance	target	assay	system	conditions	scale	quantity	result
PhoQ, residues 284 288 289 292 302 303 NSMLDC	PhoP, residues 12 14 15 18 19 GQAIL (Escherichia coli, UniProt P23836)	Sort-seq, item: YFP reporter	E. coli	PhoQ-PhoP variant library, together with: 10 µM Mg2+	relative to: high Mg2+ state, higher = stronger signaling	fold induction	13.2

For quick reference, copied from above (single results of other studies):
Substance	target	assay	system	conditions	scale	quantity	result
PhoQ, residues 284 288 289 292 302 303 NSMLDC	PhoP, residues 12 14 15 18 19 GQAIL (Escherichia coli, UniProt P23836)	Sort-seq, item: YFP reporter	E. coli	PhoQ-PhoP variant library, together with: 10 µM Mg2+	relative to: high Mg2+ state, higher = stronger signaling	fold induction	13.2
